Earlier results, collected from citations in different studies.
Compare with care: the assays were run in different laboratories.

`CC12C(=O)OC(=O)C1(C)C1CCC2O1` (centres unmarked) gave an IC50 of 0.2 to 8 µM (protein phosphatase 2A catalytic subunit; enzyme activity, inhibitor).
For `CCCCCOc1ccc(C(=O)c2cccc3ccccc23)c2ccccc12`, “reduction of anti-allodynic effect on repeated dosing” read about 50% (mechanical allodynia; mouse CFA inflammatory pain model; dose not given, tolerance).
`COc1cc2c(c(OC)c1OC)-c1ccc(OC)c(=O)cc1[C@@H](NC(C)=O)CC2` has a Cmax of 17 nM (human, plasma; concentration not given).
The unchanged fraction of `C=C1C[C@@H]2[C@H](CC[C@]3(C)C(=O)CC[C@@H]23)[C@@]2(C)C=CC(=O)C=C12` is reported as under 10% (patients, plasma; dose not given).
For `CCCCOP(=O)(O)C(C)=O`, “fold potency vs PDH” read 60 fold (DXP synthase over porcine PDH E1).
The IC50 of `RYSIFFDY` is reported as over 5 µM (HLA class I histocompatibility antigen, B alpha chain, allele B*39:01 (Homo sapiens, UniProt P01889); peptide-MHC binding; peptide).
`C[C@@](O)(/C=C/[C@H]1CC=CC(=O)O1)[C@@H](C[C@@H](O)\C=C/C=C\C=C\CO)OP(=O)(O)O` gave an IC50 of 50 to 70 µM (protein phosphatase 1 catalytic subunit; inhibitor; concentration not given).
Under seizure protection, `CC(=O)[C@H]1CC[C@H]2[C@@H]3CC[C@H]4C[C@@H](O)CC[C@]4(C)[C@H]3CC[C@]12C` is recorded as “inactive” (male NIH Swiss mice; dose not given, pentylenetetrazol seizure model).
